Experimental data from different studies.
Each numbered part is a random draw from the data of one study; scales do not carry over between parts.
Chain of UniProt P42336 (whole entry, unmodified, looked up): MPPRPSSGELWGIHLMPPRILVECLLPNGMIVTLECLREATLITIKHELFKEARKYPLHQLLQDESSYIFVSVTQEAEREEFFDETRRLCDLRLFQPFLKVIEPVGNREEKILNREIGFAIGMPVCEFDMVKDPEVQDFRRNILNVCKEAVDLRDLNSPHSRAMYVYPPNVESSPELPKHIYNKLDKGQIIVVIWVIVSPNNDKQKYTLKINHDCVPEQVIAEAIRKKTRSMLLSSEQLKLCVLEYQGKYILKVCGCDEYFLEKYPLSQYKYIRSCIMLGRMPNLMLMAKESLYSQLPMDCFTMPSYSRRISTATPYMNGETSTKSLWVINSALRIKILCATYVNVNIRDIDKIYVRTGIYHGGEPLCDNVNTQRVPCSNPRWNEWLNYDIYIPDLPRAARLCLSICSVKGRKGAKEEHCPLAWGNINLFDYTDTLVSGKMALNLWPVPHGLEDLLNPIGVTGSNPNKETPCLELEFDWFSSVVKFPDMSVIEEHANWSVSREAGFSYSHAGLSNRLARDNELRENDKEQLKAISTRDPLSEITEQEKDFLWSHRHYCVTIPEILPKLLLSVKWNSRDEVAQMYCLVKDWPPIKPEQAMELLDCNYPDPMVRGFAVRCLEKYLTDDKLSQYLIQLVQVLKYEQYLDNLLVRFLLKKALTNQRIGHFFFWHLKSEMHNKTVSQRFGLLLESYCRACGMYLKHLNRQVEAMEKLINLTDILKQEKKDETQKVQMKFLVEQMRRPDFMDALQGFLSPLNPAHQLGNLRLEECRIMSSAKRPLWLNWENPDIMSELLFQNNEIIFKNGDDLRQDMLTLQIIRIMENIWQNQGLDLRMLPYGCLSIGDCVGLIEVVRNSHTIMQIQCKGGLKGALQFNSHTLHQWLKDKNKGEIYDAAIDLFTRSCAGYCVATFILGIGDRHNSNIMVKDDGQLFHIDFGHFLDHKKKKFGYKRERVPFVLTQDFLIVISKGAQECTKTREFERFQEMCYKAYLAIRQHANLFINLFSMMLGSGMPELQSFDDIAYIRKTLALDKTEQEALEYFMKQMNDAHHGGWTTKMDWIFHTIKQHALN

Set 1
Target: Ephrin type-A receptor 7 (EPHA7, Homo sapiens, UniProt Q15375)
Chain of UniProt Q15375 (whole entry, looked up): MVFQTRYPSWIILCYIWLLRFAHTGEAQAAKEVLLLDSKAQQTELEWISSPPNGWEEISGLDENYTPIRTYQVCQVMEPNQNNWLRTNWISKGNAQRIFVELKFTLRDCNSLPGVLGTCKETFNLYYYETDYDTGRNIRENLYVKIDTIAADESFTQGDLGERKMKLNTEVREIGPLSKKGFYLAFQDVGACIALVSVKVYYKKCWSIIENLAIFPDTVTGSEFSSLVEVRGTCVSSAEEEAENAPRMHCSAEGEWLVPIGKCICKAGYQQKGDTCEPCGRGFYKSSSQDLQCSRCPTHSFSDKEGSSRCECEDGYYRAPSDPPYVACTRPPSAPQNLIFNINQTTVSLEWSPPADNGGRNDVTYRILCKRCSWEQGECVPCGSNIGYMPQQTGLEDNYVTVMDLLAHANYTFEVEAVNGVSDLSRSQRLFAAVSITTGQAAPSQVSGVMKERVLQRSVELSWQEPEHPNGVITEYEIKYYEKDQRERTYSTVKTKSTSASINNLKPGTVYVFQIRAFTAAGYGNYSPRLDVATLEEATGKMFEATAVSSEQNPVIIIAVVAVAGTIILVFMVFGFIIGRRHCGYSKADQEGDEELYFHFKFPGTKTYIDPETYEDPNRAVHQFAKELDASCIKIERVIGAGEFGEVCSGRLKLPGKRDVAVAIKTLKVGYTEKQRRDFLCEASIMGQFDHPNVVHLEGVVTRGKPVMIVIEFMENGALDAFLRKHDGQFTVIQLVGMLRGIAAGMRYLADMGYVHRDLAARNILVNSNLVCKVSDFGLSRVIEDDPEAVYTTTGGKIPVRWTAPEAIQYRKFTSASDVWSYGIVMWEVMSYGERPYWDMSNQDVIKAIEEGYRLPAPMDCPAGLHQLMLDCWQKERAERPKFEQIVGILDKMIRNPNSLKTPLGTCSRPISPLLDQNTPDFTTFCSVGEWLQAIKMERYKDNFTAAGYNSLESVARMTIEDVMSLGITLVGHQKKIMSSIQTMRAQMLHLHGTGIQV
Effect on: enzyme activity
Mode: inhibitor
Concentration: 0.5 µM
Relative to: control
Quantity: remaining activity
O=C1c2ccccc2-c2n[nH]c3cccc1c23: 90.9%
O=C1C(Cl)=C(N2C(=O)CCC2=O)C(=O)c2ccccc21: 106%
O=C(Nc1cccc(Nc2nccc(Nc3cccc(C(F)(F)F)c3)n2)c1)C1CC1: 112%
CCN(CC)C(=O)c1ccc(Nc2nc(OCC3CCCCC3)c3[nH]cnc3n2)cc1: 72.8%
CCN(CC)CCNC(=O)c1c(C)[nH]c(/C=C2\C(=O)Nc3ccc(F)cc32)c1C: 50.8%
Cn1nc2c3c(cccc31)C(=O)c1ccccc1-2: 104%
COc1cc2c(cc1OC)-c1[nH]nc(Nc3cccc(F)c3)c1C2: 98%
COc1cc2ncnc(Nc3cccc(Cl)c3)c2cc1OC: 65%
Cc1cn(-c2cc(NC(=O)c3ccc(C)c(Nc4nccc(-c5cccnc5)n4)c3)cc(C(F)(F)F)c2)cn1: 86.4%
Cc1cc2ncc(-c3ccccc3)nc2cc1C: 96.6%
CCN(CC)CCNC(=O)c1c(C)[nH]c(/C=C2\C(=O)Nc3ccc(Cl)cc32)c1C: 67.1%
C[C@@H]1CCN(C(=O)CC#N)C[C@@H]1N(C)c1ncnc2[nH]ccc12: 89%
O=C(NC(NC(=S)Nc1ccc(F)c([N+](=O)[O-])c1)C(Cl)(Cl)Cl)C(c1ccccc1)c1ccccc1 (centres unmarked): 109%
O=c1cc(-c2cccc3c2Sc2ccccc2S3)oc(N2CCOCC2)c1: 106%
c1ccc(-c2cnc(Nc3ccc(OCCN4CCCC4)cc3)s2)cc1: 98%
CCOc1nc(NC(=O)Cc2cc(OC)ccc2OC)cc(N)c1C#N: 108%
N#C/C(=C\c1ccc(O)c(O)c1)C(=O)NCc1ccccc1: 89.7%
CN([C@@H](Cc1ccc(OS(=O)(=O)c2cccc3cnccc23)cc1)C(=O)N1CCN(c2ccccc2)CC1)S(=O)(=O)c1cccc2cnccc12: 102%
COc1cc2ncnc(Nc3ccc(O)c(Br)c3)c2cc1OC: 46.1%
Ic1cccc(CSc2nnc(-c3ccncc3)o2)c1: 100%
c1ccc(-c2[nH]ncc2-c2ccnc3ccccc23)nc1: 91.4%
CN(C)C[C@H]1CCn2c(c(C3=C(c4cn(C)c5ccccc45)C(=O)NC3=O)c3ccccc32)C1: 96.9%
Cc1nc2cc3nc(-c4cccs4)cnc3cc2n1C: 92.5%

Set 2
Target: Calcium/calmodulin-dependent protein kinase type II subunit alpha (CAMK2A, Homo sapiens, UniProt Q9UQM7)
Chain of UniProt Q9UQM7 (whole entry, looked up): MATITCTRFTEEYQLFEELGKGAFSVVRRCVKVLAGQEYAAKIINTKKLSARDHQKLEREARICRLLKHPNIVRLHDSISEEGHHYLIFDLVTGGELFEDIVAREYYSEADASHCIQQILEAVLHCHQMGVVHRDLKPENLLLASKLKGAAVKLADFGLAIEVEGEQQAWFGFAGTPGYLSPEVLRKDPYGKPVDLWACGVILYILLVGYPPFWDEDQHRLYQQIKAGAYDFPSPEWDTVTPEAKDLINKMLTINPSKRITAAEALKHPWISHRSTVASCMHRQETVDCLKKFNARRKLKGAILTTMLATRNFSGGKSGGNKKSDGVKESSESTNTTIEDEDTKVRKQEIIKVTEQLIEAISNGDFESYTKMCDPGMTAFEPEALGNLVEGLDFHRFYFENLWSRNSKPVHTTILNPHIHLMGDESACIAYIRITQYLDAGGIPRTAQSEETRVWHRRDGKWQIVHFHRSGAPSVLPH
Effect on: enzyme activity
Mode: inhibitor
Concentration: 10 µM
Quantity: inhibition
Oc1cc(O)c2c(c1)O[C@H](c1ccc(O)c(O)c1)[C@H](O)[C@H]2c1c(O)cc(O)c2c1O[C@H](c1ccc(O)c(O)c1)[C@H](O)C2: 18%
CCCCCCCC/C=C\CCCCCCCC(=O)O[C@H](CC(=O)[O-])C[N+](C)(C)C: -15%
C[C@H]1CN(C[C@H](Cc2ccccc2)C(=O)NCC(=O)O)CC[C@@]1(C)c1cccc(O)c1: 8%
C[C@H](CCCC(C)(C)O)[C@H]1CC[C@H]2[C@@H]3CC=C4C[C@@H](O)CC[C@]4(C)[C@H]3CC[C@]12C: 10%
CCCOC(=O)c1cc(O)c(O)c(O)c1: 30%
NC(=O)c1nc(F)cnc1O: 5%
Cn1c([N+](=O)[O-])cnc1COC(N)=O: -8%
O=C(O)c1ccc(O)cc1O: -21%

Set 3
Target: DNA polymerase theta, ATPase domain (POLQ, Homo sapiens, UniProt O75417)
Chain of UniProt O75417 (whole entry, unmodified, looked up): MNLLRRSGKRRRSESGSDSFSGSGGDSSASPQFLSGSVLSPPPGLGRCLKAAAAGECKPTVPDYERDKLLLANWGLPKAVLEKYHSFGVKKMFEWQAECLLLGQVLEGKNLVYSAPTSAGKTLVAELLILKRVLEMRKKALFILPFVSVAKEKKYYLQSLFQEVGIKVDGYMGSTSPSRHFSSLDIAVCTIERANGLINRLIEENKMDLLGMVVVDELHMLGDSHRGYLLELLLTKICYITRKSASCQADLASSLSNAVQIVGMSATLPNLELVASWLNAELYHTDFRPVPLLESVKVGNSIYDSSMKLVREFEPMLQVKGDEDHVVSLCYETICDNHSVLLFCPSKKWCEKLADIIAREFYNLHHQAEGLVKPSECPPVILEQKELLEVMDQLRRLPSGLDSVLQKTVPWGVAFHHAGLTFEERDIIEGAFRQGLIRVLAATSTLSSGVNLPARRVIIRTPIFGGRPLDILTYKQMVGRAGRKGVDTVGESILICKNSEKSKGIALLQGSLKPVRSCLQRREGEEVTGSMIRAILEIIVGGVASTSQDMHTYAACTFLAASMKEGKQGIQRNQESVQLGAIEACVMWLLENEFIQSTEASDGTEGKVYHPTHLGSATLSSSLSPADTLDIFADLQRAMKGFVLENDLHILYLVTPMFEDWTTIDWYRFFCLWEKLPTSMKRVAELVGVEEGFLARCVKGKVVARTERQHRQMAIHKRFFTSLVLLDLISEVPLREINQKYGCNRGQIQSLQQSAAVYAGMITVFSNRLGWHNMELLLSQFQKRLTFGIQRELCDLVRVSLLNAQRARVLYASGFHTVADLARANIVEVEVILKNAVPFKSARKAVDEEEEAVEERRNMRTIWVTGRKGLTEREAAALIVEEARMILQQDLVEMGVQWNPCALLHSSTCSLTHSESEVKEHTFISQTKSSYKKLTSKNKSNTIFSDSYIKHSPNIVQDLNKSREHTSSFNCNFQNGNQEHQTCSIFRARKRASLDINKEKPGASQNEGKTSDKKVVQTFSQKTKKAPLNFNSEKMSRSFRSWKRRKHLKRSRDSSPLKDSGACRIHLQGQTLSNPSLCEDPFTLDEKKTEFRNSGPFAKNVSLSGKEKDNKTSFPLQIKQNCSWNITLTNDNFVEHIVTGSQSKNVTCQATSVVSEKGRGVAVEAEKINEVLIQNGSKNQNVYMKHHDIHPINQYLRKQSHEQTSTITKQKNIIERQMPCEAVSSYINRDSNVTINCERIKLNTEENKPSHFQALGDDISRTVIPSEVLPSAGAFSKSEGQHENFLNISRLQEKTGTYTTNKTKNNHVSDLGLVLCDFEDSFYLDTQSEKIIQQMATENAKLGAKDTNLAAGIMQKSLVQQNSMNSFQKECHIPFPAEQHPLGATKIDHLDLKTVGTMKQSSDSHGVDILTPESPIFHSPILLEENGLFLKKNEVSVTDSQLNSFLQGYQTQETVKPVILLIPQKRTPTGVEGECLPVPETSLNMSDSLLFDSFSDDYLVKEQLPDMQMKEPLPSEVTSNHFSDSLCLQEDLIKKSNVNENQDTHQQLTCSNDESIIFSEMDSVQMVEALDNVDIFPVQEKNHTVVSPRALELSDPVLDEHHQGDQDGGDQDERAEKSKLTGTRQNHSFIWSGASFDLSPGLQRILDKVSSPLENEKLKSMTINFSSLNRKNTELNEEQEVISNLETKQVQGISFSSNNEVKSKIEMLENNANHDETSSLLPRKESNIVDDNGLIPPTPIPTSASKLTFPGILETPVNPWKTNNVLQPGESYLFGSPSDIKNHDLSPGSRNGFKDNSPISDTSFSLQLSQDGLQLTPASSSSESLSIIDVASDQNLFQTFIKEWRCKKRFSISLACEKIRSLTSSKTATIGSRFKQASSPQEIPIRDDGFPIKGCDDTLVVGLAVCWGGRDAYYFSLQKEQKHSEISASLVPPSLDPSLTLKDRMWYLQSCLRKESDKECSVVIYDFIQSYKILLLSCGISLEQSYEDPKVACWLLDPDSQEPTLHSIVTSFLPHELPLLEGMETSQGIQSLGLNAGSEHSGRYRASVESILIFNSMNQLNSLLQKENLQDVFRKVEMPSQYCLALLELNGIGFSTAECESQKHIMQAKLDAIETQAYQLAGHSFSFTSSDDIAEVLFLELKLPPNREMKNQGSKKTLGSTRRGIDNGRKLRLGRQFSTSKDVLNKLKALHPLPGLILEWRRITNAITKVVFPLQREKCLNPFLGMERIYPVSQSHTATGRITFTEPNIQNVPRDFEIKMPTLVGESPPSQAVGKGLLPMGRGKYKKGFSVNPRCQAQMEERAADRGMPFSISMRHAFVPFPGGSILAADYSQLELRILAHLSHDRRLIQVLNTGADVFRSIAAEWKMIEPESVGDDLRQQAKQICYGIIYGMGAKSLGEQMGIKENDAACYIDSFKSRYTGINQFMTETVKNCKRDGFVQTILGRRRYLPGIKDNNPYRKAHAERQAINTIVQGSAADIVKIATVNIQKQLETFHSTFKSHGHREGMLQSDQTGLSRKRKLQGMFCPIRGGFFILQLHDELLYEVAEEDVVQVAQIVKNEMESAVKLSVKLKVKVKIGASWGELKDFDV
Effect on: enzyme activity
Mode: inhibitor
Concentration: 77 µM
Relative to: untreated
Quantity: remaining activity
O=c1[nH]c(=O)n([C@H]2C[C@H](O)[C@@H](CO)O2)cc1Br: 99.6%
Cc1ccc(-n2sc(=O)n(Cc3ccc(F)cc3)c2=O)cc1: 97.4%
NCC(=O)CCC(=O)O: 101%
Cc1cccc(Nc2ccncc2S(=O)(=O)NC(=O)NC(C)C)c1: 94.4%
COc1ccc(CCN(C)CCc2ccc(OC)c(OC)c2)cc1OC: 105%
COc1ccccc1S(=O)(=O)Nc1ccc2c(c1)CN(C)C(=O)N2: 99.2%

Set 4
SMILES: CN(C)C(=O)Cn1cc(-c2nc([C@@](C)(c3ccc(-c4cnc(N)nc4)cc3)C3CC3)no2)cn1
Effect on: cell-free assay
Technique: competition with immobilised ligand
Concentration: 1 µM
Quantity: remaining binding
TGFBR2 (Homo sapiens, UniProt P37173): 88%
PIK3CG (Homo sapiens, UniProt P48736): 72%
MAP3K10 (Homo sapiens, UniProt Q02779): 83%
MAPK14 (Homo sapiens, UniProt Q16539): 90%
NIM1K (Homo sapiens, UniProt Q8IY84): 86%
Ribosomal protein S6 kinase alpha-1, C-terminal kinase domain (RPS6KA1, Homo sapiens, UniProt Q15418): 99%
STK33 (Homo sapiens, UniProt Q9BYT3): 100%
Tyrosine-protein kinase JAK1, JH1 (JAK1, Homo sapiens, UniProt P23458): 100%
WNK2 (Homo sapiens, UniProt Q9Y3S1): 100%
MAP2K5 (Homo sapiens, UniProt Q13163): 62%
PIK3CA (Homo sapiens, UniProt P42336, C420R): 73%
Non-receptor tyrosine-protein kinase TYK2, JH2 (TYK2, Homo sapiens, UniProt P29597): 65%
LCK (Homo sapiens, UniProt P06239): 86%
ULK3 (Homo sapiens, UniProt Q6PHR2): 86%
PIK3CA (Homo sapiens, UniProt P42336): 96%
EPHB4 (Homo sapiens, UniProt P54760): 100%
STK25 (Homo sapiens, UniProt O00506): 100%
IRAK1 (Homo sapiens, UniProt P51617): 85%
EPHA6 (Homo sapiens, UniProt Q9UF33): 100%
PRKD1 (Homo sapiens, UniProt Q15139): 100%
NTRK1 (Homo sapiens, UniProt P04629): 70%
ROS1 (Homo sapiens, UniProt P08922): 88%
HUNK (Homo sapiens, UniProt P57058): 100%
TSSK3 (Homo sapiens, UniProt Q96PN8): 68%
CDK3 (Homo sapiens, UniProt Q00526): 100%
